Measured values from different studies.
Lines come from different studies, so protocols differ. ± marks the error that the study gave.
Mapk1: Mitogen-activated protein kinase 1 (Mapk1, Rattus norvegicus, UniProt P63086)

SMILES = O=C(O)CCn1c(=O)oc2cc(Cl)c(Cl)cc21; target = Potassium voltage-gated channel subfamily KQT member 1, with KCNE1 (KCNQ1, Homo sapiens, UniProt P51787); test = ion current, blocker; IC50 = > 25100 nM
SMILES = CCCCCCCCCCCCCCCCCC(=O)NC[C@H]1CC[C@H](C(=O)N[C@@H](CCC(=O)NCCCOCCOCCOCCCNC(=O)COCC(=O)N[C@@H](Cc2ccc(O)cc2)C(=O)NC(C)(Cc2ccccc2)C(=O)N[C@@H](CC(C)C)C(=O)N[C@@H](CCCC)C(=O)N[C@@H](CCCNC(=N)N)C(=O)N2CCC[C@H]2C(=O)N[C@@H](CCCNC(=N)NC)C(=O)N[C@@H](CC(N)=O)C(N)=O)C(=O)O)CC1 (some centres unmarked); target = NMUR1 (Homo sapiens, UniProt Q9HB89); test = ligand displacement, radioligand; setting = cell membranes; IC50 = 2.9 nM
SMILES = COc1ccccc1-n1c(SCC(=O)Nc2ccccc2F)nc2cccnc21; target = PFF0160c (Plasmodium falciparum, UniProt Q08210); test = enzyme activity, inhibitor, absorbance; IC50 = 2780 nM
SMILES = CC[C@H](C)[C@H](NC(=O)[C@H](CC(C)C)NC(=O)[C@@H]1CCCN1C(=O)[C@H](CCC(=O)O)NC(=O)[C@@H]1CCCN1C(=O)[C@H](CCCNC(=N)N)NC(=O)[C@@H]1CCCN1C(=O)[C@H](CCCNC(=N)N)NC(=O)[C@H](CCC(N)=O)NC(=O)[C@H](CCCCN)NC(=O)[C@@H]1CCCN1C(=O)[C@H](C)NC(=O)[C@@H](N)Cc1ccc(O)cc1)C(=O)N[C@H](C(=O)N[C@@H](C)C(=O)N[C@H](C(=O)O)[C@@H](C)O)[C@@H](C)CC; target = Mapk1; test = enzyme activity, inhibitor, fluorescence; setting = pH 7.4; IC50 = 19800 nM
SMILES = O=S(=O)(N/N=C/c1ccc(OS(=O)(=O)c2ccc(Cl)cc2)cc1)c1ccc(Cl)cc1; target = CA1 (Homo sapiens, UniProt P00915); test = enzyme activity, inhibitor, absorbance; IC50 = 166 nM
SMILES = CSCC[C@H](N)C(=O)N[C@@H](CC(=O)O)C(=O)N[C@@H](CC(C)C)C(=O)N1CCC[C@H]1C(=O)N[C@@H](Cc1ccccc1)C(=O)N[C@@H](CCC(=O)O)C(=O)N[C@H](Cc1ccccc1)C(N)=O; target = Transcriptional regulator PlcR (Bacillus thuringiensis, UniProt A0ACM8Q0N2); test = reporter gene, inhibitor, lacZ reporter; system = 407 Cry−; IC50 = 580 ± 35 nM
SMILES = N[C@H](C(=O)N1CCCC1)C1CCN(c2nccc3c(-c4ncc(Cl)cc4Cl)cccc23)CC1; target = PADI1 (Homo sapiens, UniProt Q9ULC6); test = enzyme activity, inhibitor; IC50 = 110 nM
SMILES = CC[C@H](C)[C@H](NC(=O)[C@H](CCCCN)NC(=O)[C@H](CC(C)C)NC(=O)[C@H](CCCCN)NC(=O)[C@H](CC(C)C)NC(=O)[C@H](CCCCN)NC(=O)[C@@H]1CCCN1C(=O)[C@H](CCCCN)NC(=O)[C@H](CO)NC(=O)[C@H](CCCNC(=N)N)NC(=O)[C@H](CCCCN)NC(=O)[C@H](CCCNC(=N)N)NC(=O)[C@H](C)NC(=O)[C@@H](N)Cc1ccc(O)cc1)C(=O)N[C@H](C(=O)N[C@@H](CC(N)=O)C(=O)O)[C@@H](C)CC; target = Mapk1; test = enzyme activity, inhibitor, fluorescence; setting = pH 7.4; IC50 = 694 nM
SMILES = O=S(=O)(F)c1cccc(S(=O)(=O)Nc2cc(F)c(C3CC3)cc2Cl)c1; target = GTPase KRas, with RAF (KRAS, Homo sapiens, UniProt P01116); test = RAF-KRAS interaction, inhibitor, NanoBRET; system = HEK293T; setting = 24 h; IC50 = 37000 ± 8000 nM
SMILES = Cc1ccc2c(n1)c(-c1cccc(S(C)(=O)=O)c1)c(C)n2C/C(F)=C/CN; target = Cytochrome P450 1A2 (CYP1A2, Homo sapiens, UniProt P05177); test = enzyme activity, inhibitor; system = human, liver microsomes; IC50 = > 10000 nM
SMILES = OC[C@@H]1[C@@H](O)[C@H](O)[C@@H](O)[C@H]2N[C@@H]12; target = bglA (Thermotoga maritima, UniProt Q08638); test = enzyme activity, inhibitor; setting = pH 6.8, with preincubation; IC50 = 30600 nM

Repeated from above:
SMILES = CC[C@H](C)[C@H](NC(=O)[C@H](CCCCN)NC(=O)[C@H](CC(C)C)NC(=O)[C@H](CCCCN)NC(=O)[C@H](CC(C)C)NC(=O)[C@H](CCCCN)NC(=O)[C@@H]1CCCN1C(=O)[C@H](CCCCN)NC(=O)[C@H](CO)NC(=O)[C@H](CCCNC(=N)N)NC(=O)[C@H](CCCCN)NC(=O)[C@H](CCCNC(=N)N)NC(=O)[C@H](C)NC(=O)[C@@H](N)Cc1ccc(O)cc1)C(=O)N[C@H](C(=O)N[C@@H](CC(N)=O)C(=O)O)[C@@H](C)CC; target = Mapk1; test = enzyme activity, inhibitor, fluorescence; setting = pH 7.4; IC50 = 694 nM
